Experimental data of several laboratories.
Each numbered part is a random draw from the data of one study; scales do not carry over between parts.
Chain of UniProt Q13705 (whole entry, looked up): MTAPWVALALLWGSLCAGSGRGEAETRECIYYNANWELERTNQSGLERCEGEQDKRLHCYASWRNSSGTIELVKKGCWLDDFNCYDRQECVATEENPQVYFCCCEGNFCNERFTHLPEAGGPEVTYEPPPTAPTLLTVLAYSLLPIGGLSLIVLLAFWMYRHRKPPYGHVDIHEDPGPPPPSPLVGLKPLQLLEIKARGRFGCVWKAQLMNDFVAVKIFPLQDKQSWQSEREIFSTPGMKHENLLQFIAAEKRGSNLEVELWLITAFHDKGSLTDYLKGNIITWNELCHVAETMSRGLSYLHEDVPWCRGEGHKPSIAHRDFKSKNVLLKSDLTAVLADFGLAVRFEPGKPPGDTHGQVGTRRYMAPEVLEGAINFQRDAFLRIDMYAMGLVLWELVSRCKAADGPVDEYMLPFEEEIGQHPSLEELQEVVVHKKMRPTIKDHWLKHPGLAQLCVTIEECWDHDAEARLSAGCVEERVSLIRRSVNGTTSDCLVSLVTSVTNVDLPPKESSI
Chain of UniProt Q9NSY1 (whole entry, looked up): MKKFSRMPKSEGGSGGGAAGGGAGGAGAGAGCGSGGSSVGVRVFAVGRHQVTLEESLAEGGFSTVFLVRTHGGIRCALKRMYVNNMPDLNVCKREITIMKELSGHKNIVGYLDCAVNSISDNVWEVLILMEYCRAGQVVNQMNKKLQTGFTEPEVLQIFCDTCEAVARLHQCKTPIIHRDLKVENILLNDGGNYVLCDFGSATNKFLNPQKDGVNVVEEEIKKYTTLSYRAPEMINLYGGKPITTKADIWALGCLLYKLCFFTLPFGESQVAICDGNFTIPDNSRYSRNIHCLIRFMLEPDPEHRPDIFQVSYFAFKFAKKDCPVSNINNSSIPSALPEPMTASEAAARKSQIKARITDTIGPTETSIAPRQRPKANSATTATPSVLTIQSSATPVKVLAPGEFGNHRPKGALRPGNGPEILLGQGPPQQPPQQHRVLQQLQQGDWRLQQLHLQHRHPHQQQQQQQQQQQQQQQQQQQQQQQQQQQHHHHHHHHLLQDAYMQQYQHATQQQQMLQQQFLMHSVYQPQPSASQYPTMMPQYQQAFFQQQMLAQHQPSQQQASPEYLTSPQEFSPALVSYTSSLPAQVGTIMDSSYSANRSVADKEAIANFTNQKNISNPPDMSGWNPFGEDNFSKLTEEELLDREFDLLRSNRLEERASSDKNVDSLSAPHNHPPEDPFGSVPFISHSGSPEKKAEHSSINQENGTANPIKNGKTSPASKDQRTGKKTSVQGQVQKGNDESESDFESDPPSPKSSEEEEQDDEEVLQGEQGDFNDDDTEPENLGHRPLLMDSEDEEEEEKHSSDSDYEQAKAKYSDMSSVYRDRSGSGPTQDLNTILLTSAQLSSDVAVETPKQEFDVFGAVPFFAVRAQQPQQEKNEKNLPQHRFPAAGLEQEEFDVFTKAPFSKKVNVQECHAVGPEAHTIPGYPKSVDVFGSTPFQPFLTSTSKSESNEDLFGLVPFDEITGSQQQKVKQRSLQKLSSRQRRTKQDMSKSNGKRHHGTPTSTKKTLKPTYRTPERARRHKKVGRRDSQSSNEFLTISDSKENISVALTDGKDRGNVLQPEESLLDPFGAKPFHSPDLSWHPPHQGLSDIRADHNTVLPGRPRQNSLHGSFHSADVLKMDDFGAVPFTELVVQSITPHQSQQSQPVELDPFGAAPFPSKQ
Chain of UniProt P52333 (whole entry, looked up): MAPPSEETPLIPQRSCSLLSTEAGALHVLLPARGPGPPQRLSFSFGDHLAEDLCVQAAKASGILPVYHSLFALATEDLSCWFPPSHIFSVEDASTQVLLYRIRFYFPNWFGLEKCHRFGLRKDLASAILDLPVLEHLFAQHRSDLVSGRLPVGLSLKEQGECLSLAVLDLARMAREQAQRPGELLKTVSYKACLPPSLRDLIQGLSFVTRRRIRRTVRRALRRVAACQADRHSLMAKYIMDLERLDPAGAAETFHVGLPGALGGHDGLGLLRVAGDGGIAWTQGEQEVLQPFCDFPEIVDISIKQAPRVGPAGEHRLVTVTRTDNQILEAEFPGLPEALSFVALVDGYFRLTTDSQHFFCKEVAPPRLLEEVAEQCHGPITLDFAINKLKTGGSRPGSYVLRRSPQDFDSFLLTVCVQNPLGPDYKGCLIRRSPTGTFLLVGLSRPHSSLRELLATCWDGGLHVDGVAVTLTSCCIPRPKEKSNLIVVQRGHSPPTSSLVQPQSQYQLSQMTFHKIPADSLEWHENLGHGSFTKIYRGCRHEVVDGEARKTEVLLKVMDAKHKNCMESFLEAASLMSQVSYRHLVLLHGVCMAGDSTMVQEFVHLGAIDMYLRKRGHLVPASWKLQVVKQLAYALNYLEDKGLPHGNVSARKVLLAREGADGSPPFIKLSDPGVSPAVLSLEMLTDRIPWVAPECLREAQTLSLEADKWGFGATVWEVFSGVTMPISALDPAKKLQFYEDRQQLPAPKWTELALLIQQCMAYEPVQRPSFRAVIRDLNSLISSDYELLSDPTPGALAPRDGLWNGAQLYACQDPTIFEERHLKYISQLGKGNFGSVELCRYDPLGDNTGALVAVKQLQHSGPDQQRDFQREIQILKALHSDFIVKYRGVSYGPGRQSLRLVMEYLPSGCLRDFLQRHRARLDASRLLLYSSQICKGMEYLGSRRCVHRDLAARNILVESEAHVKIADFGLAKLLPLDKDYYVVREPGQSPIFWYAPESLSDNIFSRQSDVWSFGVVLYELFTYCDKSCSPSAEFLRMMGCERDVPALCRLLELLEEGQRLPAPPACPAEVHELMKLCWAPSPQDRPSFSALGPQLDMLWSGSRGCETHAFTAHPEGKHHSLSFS
Chain of UniProt Q9Y2H1 (whole entry, looked up): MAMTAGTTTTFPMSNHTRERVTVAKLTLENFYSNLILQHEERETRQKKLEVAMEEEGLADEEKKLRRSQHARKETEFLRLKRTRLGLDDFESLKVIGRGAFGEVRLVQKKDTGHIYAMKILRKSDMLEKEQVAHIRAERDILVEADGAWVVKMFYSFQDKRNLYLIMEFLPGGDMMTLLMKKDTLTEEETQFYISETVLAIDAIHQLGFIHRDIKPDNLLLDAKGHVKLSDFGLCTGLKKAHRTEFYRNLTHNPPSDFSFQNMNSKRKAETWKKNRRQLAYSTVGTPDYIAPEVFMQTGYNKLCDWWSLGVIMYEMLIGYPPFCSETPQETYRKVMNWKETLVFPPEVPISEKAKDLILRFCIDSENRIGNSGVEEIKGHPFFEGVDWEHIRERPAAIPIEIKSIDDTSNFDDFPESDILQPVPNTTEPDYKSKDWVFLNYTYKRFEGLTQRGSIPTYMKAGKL
Chain of UniProt Q12852 (whole entry, looked up): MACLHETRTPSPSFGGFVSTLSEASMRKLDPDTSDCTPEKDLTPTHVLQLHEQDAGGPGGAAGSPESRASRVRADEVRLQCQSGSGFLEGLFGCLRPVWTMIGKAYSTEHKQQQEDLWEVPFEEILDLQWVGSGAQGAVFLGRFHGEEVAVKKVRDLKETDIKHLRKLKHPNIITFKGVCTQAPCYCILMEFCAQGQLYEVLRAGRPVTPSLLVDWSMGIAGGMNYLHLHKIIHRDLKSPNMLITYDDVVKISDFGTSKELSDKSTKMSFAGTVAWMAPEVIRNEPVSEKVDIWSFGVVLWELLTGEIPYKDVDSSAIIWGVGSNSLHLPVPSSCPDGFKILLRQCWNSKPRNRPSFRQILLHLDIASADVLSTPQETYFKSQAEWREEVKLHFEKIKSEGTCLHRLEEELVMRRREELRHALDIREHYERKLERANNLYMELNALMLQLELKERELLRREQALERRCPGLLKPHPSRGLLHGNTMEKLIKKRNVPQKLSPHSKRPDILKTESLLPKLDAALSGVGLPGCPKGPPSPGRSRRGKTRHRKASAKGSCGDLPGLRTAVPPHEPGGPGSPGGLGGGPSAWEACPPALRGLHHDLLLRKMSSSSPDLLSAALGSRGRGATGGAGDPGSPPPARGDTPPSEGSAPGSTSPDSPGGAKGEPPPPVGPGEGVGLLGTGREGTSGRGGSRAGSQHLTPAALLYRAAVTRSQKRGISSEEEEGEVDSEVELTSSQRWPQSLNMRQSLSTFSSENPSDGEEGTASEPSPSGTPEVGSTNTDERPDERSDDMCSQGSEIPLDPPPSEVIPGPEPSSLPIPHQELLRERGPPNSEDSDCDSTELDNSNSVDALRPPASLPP
Chain of UniProt P32298 (whole entry, looked up): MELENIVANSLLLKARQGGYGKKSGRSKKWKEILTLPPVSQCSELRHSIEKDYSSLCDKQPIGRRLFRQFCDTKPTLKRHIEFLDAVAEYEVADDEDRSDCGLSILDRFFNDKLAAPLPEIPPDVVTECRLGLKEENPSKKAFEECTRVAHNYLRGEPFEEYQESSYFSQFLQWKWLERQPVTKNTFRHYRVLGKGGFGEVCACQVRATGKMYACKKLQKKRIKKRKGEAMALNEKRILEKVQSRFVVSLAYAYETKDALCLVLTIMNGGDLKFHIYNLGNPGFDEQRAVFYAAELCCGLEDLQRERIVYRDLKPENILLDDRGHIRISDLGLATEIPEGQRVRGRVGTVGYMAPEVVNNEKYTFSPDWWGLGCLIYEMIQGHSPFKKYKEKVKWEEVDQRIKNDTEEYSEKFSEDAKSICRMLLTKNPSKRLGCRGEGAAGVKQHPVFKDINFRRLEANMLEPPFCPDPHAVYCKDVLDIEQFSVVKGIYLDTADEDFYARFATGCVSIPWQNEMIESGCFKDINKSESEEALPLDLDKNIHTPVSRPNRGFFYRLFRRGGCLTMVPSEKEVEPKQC

Sample 1
Organism: Plasmodium berghei
Mode: inhibitor
Cells: Huh-7
Strain: liver stage
Tested at: 10 µM
Time: 24 h
Reference: untreated control
SMILES	infection rate [%]
CCc1cccc2c3c([nH]c12)C(CC)(CC(=O)O)OCC3 (stereo not drawn)	100
CCN(CC)C(C)CN1c2ccccc2Sc2ccccc21 (stereo not drawn)	74.1
CO/N=C1\CN(c2nc3c(cc2F)c(=O)c(C(=O)O)cn3C2CC2)CC1CN (stereo not drawn)	62.5
COCCc1ccc(OCC(O)CNC(C)C)cc1 (stereo not drawn)	98.2
CC(=O)O[C@H]1C[C@@]2(C)[C@@H](C[C@@H](O)[C@H]3[C@@]4(C)CC[C@@H](O)[C@@H](C)[C@@H]4CC[C@@]32C)/C1=C(\CCC=C(C)C)C(=O)O	90.2

Sample 2
Target: Centromere-binding protein 1, full length, His-tagged (CBF1, Saccharomyces cerevisiae, UniProt P17106, residues 1-351)
Chain of UniProt P17106 (whole entry, looked up): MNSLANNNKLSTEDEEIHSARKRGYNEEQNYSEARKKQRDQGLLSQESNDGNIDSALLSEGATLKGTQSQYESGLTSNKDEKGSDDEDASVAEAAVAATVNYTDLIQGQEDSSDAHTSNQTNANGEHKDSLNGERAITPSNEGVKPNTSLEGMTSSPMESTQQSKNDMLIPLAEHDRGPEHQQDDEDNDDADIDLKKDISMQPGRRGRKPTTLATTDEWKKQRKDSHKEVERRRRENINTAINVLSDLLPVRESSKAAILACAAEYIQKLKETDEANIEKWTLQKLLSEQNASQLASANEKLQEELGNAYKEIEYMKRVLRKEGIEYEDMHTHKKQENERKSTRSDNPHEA
Technique: competition protein-binding microarray
Molecule type: double-stranded DNA, one strand shown
Medium: in vitro
Tested at: 2 µM
Notes: whole 60-bp probe, lowest competitor level
Added: Pho4 competitor, 0.05 µM
Direction: higher = stronger binding
Constant ends, left off below: … GTCTTGATTCGCTTGACGCTGCTG
Sequence	fluorescence intensity [a.u.]
ACCCACATCACCCCATACATGACAATCTTCTTGCAA	68.3
ATGAAAAAGATTCACCACGTTTCTTTTGTTTCGATA	125
CTAACGAAGGTTTGCTGCGTGGGTGACAAGCCAAGT	68.7
CTGGGGATCAGTTCTCACATGCATCATCCTTTAATA	104
TCAATGATCCCCTTGGGCGTGCAAAGCAAAAAGAAT	76.4
TTACAAGTTATGCCTCACGTTACCTGGATCCTGCAT	215
CTTTCCCGATCTTTTCACGTGTGTTTAGCACATTTG	595
TACTGCATAAATGTTTGTTAGTGTCAATGAGCTTGA	71

Sample 3
Host: human
Medium: microsomes or S9
Tested at: 2 µM
Time: 0.5 h
SMILES	remaining compound
CN(C)CCN(Cc1ccncc1)Cc1c(F)cccc1Cl	97.8%
CC(C)(C)c1nc(CS(=O)(=O)c2nnc3c(Cl)cc(Cl)cn23)cs1	0.431%
O=C(Nc1cccc2c1OCCC2O)c1cc2sccc2[nH]1 (stereo not drawn)	79.8%
Cc1nc(C(C)(C)C)nc(N2CCC(n3cncn3)CC2)c1C	58.9%
O=S(=O)(NCCCOC1CCCCC1)c1ccc(Cl)c(-c2nnn[nH]2)c1	44.3%

Sample 4
Structure (SMILES): CCS(=O)(=O)c1cc2cc(C[C@@](O)(CC(C)(C)c3ccc(F)cc3C(N)=O)C(F)(F)F)[nH]c2cn1
Observed: cell-free assay
Technique: competition with immobilised ligand
Tested at: 1 µM
target	remaining binding [%]
Tyrosine-protein kinase ABL1, non-phosphorylated (ABL1, Homo sapiens, UniProt P00519, H396P)	99
BMP2K (Homo sapiens, UniProt Q9NSY1)	69
GRK4 (Homo sapiens, UniProt P32298)	100
STK38L (Homo sapiens, UniProt Q9Y2H1)	38
NEK10 (Homo sapiens, UniProt Q6ZWH5)	88
Ribosomal protein S6 kinase alpha-6, C-terminal kinase domain (RPS6KA6, Homo sapiens, UniProt Q9UK32)	0
PIK3CA (Homo sapiens, UniProt P42336, H1047Y)	95
FLT3 (Homo sapiens, UniProt P36888, K663Q)	83
Ribosomal protein S6 kinase alpha-3, C-terminal kinase domain (RPS6KA3, Homo sapiens, UniProt P51812)	100
PAK5 (Homo sapiens, UniProt Q9P286)	100
DSTYK (Homo sapiens, UniProt Q6XUX3)	100
MAP3K12 (Homo sapiens, UniProt Q12852)	83
Aurora kinase C (AURKC, Homo sapiens, UniProt Q9UQB9)	81
ACVR2B (Homo sapiens, UniProt Q13705)	100
Tyrosine-protein kinase JAK3, JH1 (JAK3, Homo sapiens, UniProt P52333)	76

Some of these lines once more (sample 4):
target	remaining binding [%]
NEK10 (Homo sapiens, UniProt Q6ZWH5)	88
Ribosomal protein S6 kinase alpha-6, C-terminal kinase domain (RPS6KA6, Homo sapiens, UniProt Q9UK32)	0
PIK3CA (Homo sapiens, UniProt P42336, H1047Y)	95
